Published values gathered from unrelated publications.
Protocols differ between the studies behind these lines. Several values in a cell are separate wells, animals, samples, runs or records. ± marks the error that the study gave.

| SMILES | cell line | assay | system | conditions | how to read | endpoint | result |
| --- | --- | --- | --- | --- | --- | --- | --- |
| Cl.Fc1ccc(Oc2ccc(Nc3ccc4ncc(OCC5CCNCC5)nc4c3)cc2)cc1 | MOLM-13 | RT-qPCR, measured: Myc and Meis1 | – | 0.3 and 1 µM, 3 days | – | mRNA level | decreased |
| C[C@H](CCC(=O)NCCS(=O)(=O)O)[C@H]1CC[C@H]2[C@@H]3CC[C@@H]4C[C@H](O)CC[C@]4(C)[C@H]3CC[C@]12C | human ADPKD PLD cystic cholangiocytes | cell counting | – | 20 µM, 48 h | relative to: untreated | proliferation increase | 53% |
| CSc1cc(Oc2ccnc3[nH]c(=O)cnc23)ccc1NC(=O)Nc1cc(C(C)(C)C)nn1-c1ccccc1 | patient-derived A cell clone line | reverse phase protein array | human | 1 µM, 4 h | relative to: DMSO | phospho-Ser73 c-Jun to total ratio | 0.8 |
| Fc1ccc(Cl)c(F)c1-c1c(Cl)ncn1-c1ccc(Cl)cc1 | QBI293 cells | acetylated α-tubulin, microtubule stabiliser, ELISA | – | – | – | concentration at maximal effect | 30 µM |
| CCCC1=C(C(=O)OCC)C(c2ccccc2Cl)C2=C(CC(c3ccc(OC)c(OC)c3)OC2=O)N1 (mixture of isomers) | J774.A1 | cytotoxicity | – | – | – | EC50 | > 20 µM |
| CCn1cc(-c2cc(Cn3ccoc3=N)cc3c2CCN([C@@H](C)c2cc(OC)ccn2)C3=O)c(C(F)(F)F)n1 | OVK18 | cell growth, inhibitor | – | 120 h | – | EC50 | 3.92 µM |
| Cn1cc(Nc2nccc(-c3ccc4c(c3)CN(C3COC3)CC[C@H]4NC(=O)c3cn(C(C)(C)C)nn3)n2)cn1 | human B cells | – | – | 100 nM, 64 h, stimulation-upregulated genes, together with: CD40L, anti-IgM, IL-4 | – | number of unchanged genes | 1820 |
| CCCCC[C@H](O)/C=C/[C@H]1C(=O)C[C@H](O)[C@@H]1C/C=C\CCCC(=O)O | HEK293-A2AR cells, SLCO2A1 knockout | HTRF cAMP | – | 50 µM | – | HTRF cAMP signal | 323 a.u. and 316 a.u. and 321 a.u. |
| [Cl-].[Cl-].[Os+2].c1cnc2c(c1)ccc1cccnc12.c1cnc2c(c1)ccc1cccnc12.c1cnc2c(c1)ccc1cccnc12 | SK-MEL-28 | – | – | red light, 1% O2 hypoxia | – | TGI | 172 µM |
| C=CC(=O)N1CCC([C@@H]2CCNc3c(C(N)=O)c(-c4ccc(Oc5ccccc5)cc4)nn32)CC1 | TMD8 | calcium flux, FLIPR | – | 4 h preincubation, together with: anti-IgM | – | maximum inhibition | 41.9% |
| Nc1cccc2c1CN(C1CCC(=O)NC1=O)C2=O (stereo not shown) | BRD4-HiBiT cells | BRD4 degradation rescue, inhibitor | – | 8 h, 50% degradation rescued, together with: dBET6 500 nM | – | EC50 | 10.6 µM |
| COc1ccc(-n2nc(C(C)=O)s/c2=N\N=C(/C)c2ccc(NC(=O)c3ccc(Cl)cc3)cc2)cc1 | MCF7 | – | – | 0.078 µM | – | toxicity | 15.2% |
| COC[C@H](NC(=O)c1cnc(C)s1)C(=O)N[C@@H](COC)C(=O)N[C@@H](Cc1ccccc1)C(=O)[C@@]1(C)CO1 | BRD4-HiBiT cells | BRD4 degradation rescue, inhibitor | – | 8 h, 50% degradation rescued, together with: dBET6 500 nM | – | EC50 | 4.46 µM |
| CN(C)CCCOc1cc(NC(=O)c2cccc(C(=O)Nc3cc(OCCCN(C)C)c4ccccc4n3)n2)nc2ccccc12 | HT-1080 | cell viability, CellTiter-Glo | – | 72 h | relative to: IC50 HT-1080 over WI-38 | selectivity ratio | 0.8 |
| Cc1cc(OCc2nnc(SC3CCCC3)n2-c2cccnc2)ccc1-c1ccc(S(C)(=O)=O)cc1 | BRD4-HiBiT cells | BRD4 degradation rescue, inhibitor | – | 2 h, together with: dBET6 500 nM | – | EC50 | 8.71 µM |
| Cc1nc(NC(=O)N2CCC[C@H]2C(N)=O)sc1-c1ccnc(C(C)(C)C(F)(F)F)c1 | AGS | CellTiter-Glo | – | 120 h | – | Hill coefficient | 2.19 |
| COc1cc(/C=C/C(=O)N2CCC=CC2=O)cc(OC)c1OC | MDA-MB-468 | qRT-PCR, measured: GSR | – | 30 µM, 6 h | relative to: time zero | mRNA level | 86.1 ± 12% |
| Cc1nn(-c2nc3c(F)cc(F)cc3s2)c(O)c1C(c1ccccc1C(F)(F)F)c1c(C)nn(-c2nc3c(F)cc(F)cc3s2)c1O | THP1-Dual | IFN luciferase reporter | – | 40 µM, together with: HT-DNA | – | inhibition | 101% |
| Cc1cnc(NC2CCOCC2)nc1-n1cnc(C(=O)NC(CN)c2cc(F)cc(Cl)c2)c1 (stereo not shown) | MINO | flow cytometry | – | 1 µM, 72 h | – | sub-G0 cells | 39.5% |
| CCCCN1C[C@H](O)[C@@H](O)[C@@H](O)[C@H]1CO | sample I patient fibroblasts | GlcCer level lowering, LC-MS/MS, measured: GlcCer d18:1/16:0 | – | 216 h | – | IC50 | 8.3 µM |

| SMILES | cell line | assay | system | conditions | how to read | endpoint | result |
| --- | --- | --- | --- | --- | --- | --- | --- |
| COc1cnc2cccc(N3CCc4c(cc(Cn5ccnc5C)cc4-c4cn(C)nc4C(F)(F)F)C3=O)c2c1 | RCM-1 | cell growth, inhibitor | – | 120 h | – | EC50 | > 30 µM |
| Cc1nn(-c2nc3ccc(Cl)c(Cl)c3[nH]2)c(O)c1C1OC(=O)c2ccccc21 (stereo not shown) | RAW-ISG | IFN luciferase reporter | – | 20 µM, together with: HT-DNA | – | inhibition | 93% and 92.8% and 92.5% and 92.4% and 92.6% |
| Clc1nc(NCc2ccco2)c2[nH]cnc2n1 | FD iPSC-derived cardiomyocytes | alternative splicing, RNA-seq, measured: ENOSF1 exon 697239-697355 | – | unit not given | relative to: DMSO minus compound | ΔPSI | -0.202 |
| CCOC(=O)C1=C(C)NC2=C(C(=O)OC(c3ccc(C)cc3)C2)C1c1ccccc1Cl (stereo not shown) | J774.A1 | cytotoxicity | – | – | – | EC50 | > 20 µM |
| Nc1cccc2c1C(=O)N(C1CCC(=O)NC1=O)C2=O (stereo not shown) | MM1.S | XTT | – | 2.5 µM | relative to: untreated | viability | 15% |
| CC/C(=N\NC(=O)NCc1cccc(O)c1)c1ccc(O)c(C)c1O | SK-OV-3 | Western blot | 2D culture | 10 µM, 1 h, unit not given | relative to: β-actin | YAP protein level | 1.61 ± 0.34 |
| C[C@H]1[C@@H](O)O[C@@H]2O[C@@]3(C)CC[C@H]4[C@H](C)CC[C@@H]1[C@@]24OO3 | THP-1 | annexin V/PI flow cytometry, measured: annexin V-/PI+ | – | 3.2 µM, 24 h | – | necrotic cells | 0% |
| O=C(/C=C/C=C/C=C/C1CCCCC1)NC1=C[C@@](O)(/C=C/C=C/C=C/C(=O)NC2=C(O)CCC2=O)[C@@H]2O[C@@H]2C1=O | rerflcms | cell growth, inhibitor, CellTiter-Glo luminescence | – | 78 h | relative to: day 0 cell count | GI50 | 11.8 µM |
| CC(NCCc1ccc(O)cc1)C(O)c1ccc(O)cc1 (stereo not shown) | MDA-MB-231 BAX/BAK siRNA knockdown | cell viability, CellTiter-Glo | – | – | direction not given | Z score | 1.31 |
| CCc1cnc(N2CCC(c3nc(COc4ccc(-n5cnnn5)cc4)cs3)CC2)nc1 | HEK-293T | RNA-seq GSEA, measured: HALLMARK_UV_RESPONSE_UP | – | concentration not given | direction not given | normalized enrichment score | -1.63 |
| N#C/C(=C\c1c[nH]nc1-c1ccc(Cl)c(Cl)c1)C(=O)O | LX-2 | qPCR, measured: FN1 | – | 10 µM, hepatic stellate cell activation, together with: TGFβ | relative to: untreated | mRNA level | decreased |
| CCOC(=O)C1=C(C)NC2=C(C(=O)OC(c3cc(OC)c(OC)c(OC)c3)C2)C1c1ccccc1Cl (mixture of isomers) | J774.A1 | cytotoxicity | – | – | – | EC50 | > 20 µM |
| C[C@]12CC[C@@H]3c4ccc(O)cc4CC[C@H]3[C@@H]1CC[C@@H]2OC(=O)CCC1CCCC1 | MDA-MB-231 BAX/BAK siRNA knockdown | cell viability, CellTiter-Glo | – | – | direction not given | Z score | 1.2 |
| Cc1nn(-c2nc3c(F)cc(F)cc3s2)c(O)c1C(c1cccc(C(F)(F)F)c1)c1c(C)nn(-c2nc3c(F)cc(F)cc3s2)c1O | THP1-Dual | IFN luciferase reporter | – | 5 µM, together with: HT-DNA | – | inhibition | 3.62% and 11.8% and 5.47% and -11.9% and -12.2% and 6.12% |
| COc1cc(N2CCC(O)CC2)ccc1Nc1cc(Nc2ccccc2S(=O)(=O)C(C)C)c2cc[nH]c2n1 | U2OS H2B-GFP Plk4-overexpressing | time-lapse microscopy | – | 10 µM, NEBD to anaphase onset | – | mitosis duration | 20 min |
| O=P(O)(O)C(O)(Cn1ccnc1)P(=O)(O)O | hFOB 1.19 | AlamarBlue | – | 7.5 µM, 24 h | relative to: control | viability | 101 ± 1% |
| CCCCN1CCN(c2ccc3[nH]c(-c4ccc5[nH]c(-c6ccc(OCC)cc6)nc5c4)nc3c2)CC1 | MDA-MB-435 | SRB | – | 10 µM, 48 h | – | growth percent | 55.1% |
| O=C(C[C@@H](C(F)F)n1ccc(F)n1)N1CCC(O)(Cn2cnc3c(cnn3-c3ccc(F)cc3)c2=O)CC1 | CHP-212 resistant subline R3 | annexin V/PI flow cytometry | – | 0.3 µM, 48 h | – | apoptotic cells | 9.59% and 13% and 10.1% |
| O=C(COP(=O)(O)O)[C@@H](O)[C@H](O)[C@H](O)COP(=O)(O)O | HepG2 control sgRNA | – | – | concentration not given | – | glucose consumption | 4.58 mM and 4.62 mM |
| Cn1cc(-c2ccc(-c3cncc(Cl)c3N3CCC4(CCNC4=O)CC3)cc2)cn1 | COLO 205 | gene expression, microarray, measured: BAMBI mRNA | – | concentration not given, 2 h | relative to: untreated cells | log2 fold change | 2.51 |
